Measurements pooled from the literature.

SMILES	assay	system	conditions	how to read	Cmax
CCOc1c([C@H](C)n2nc(C)c3c(N)ncnc32)cc(Cl)c(F)c1[C@@H]1CNC(=O)C1	–	human, B-cell malignancies, plasma	oral, 30 mg, day 15	–	2390 nM
C[C@@H](Nc1cc(F)cc(F)c1)c1cc(C(=O)N(C)C)cc2c(=O)cc(N3CCOCC3)oc12	–	human, pooled cohorts, plasma	oral, 120 mg twice daily, geometric least-squares mean, added: abiraterone 1000 mg	–	982 ng/mL
COc1cc(N2CCC(N3CCN(C)CC3)CC2)ccc1Nc1ncnc(Nc2ccccc2S(=O)(=O)C(C)C)n1	–	human, dose escalation arm, plasma	oral, 25 mg, day 28, mean	–	96.8 ng/mL
CO[C@H]1C[C@@H]2CC[C@@H](C)[C@@](O)(O2)C(=O)C(=O)N2CCCC[C@H]2C(=O)O[C@H]([C@H](C)C[C@@H]2CC[C@@H](OC(=O)NCCOCCOCCOCCOCCOCCOCCOCCOCCC(=O)N3CCc4cc(Cn5nc(-c6ccc7oc(N)nc7c6)c6c(N)ncnc65)ccc4C3)[C@H](OC)C2)C[C@@H](O)[C@H](C)/C=C(\C)[C@@H](O)[C@@H](OC)C(=O)[C@H](C)C[C@H](C)/C=C/C=C/C=C/1C	–	human, plasma	intravenous, 16 mg, cycle 1 day 1, arithmetic mean	–	657 ng/mL
C=CCn1c(=O)c2cnc(Nc3ccc(N4CCN(C)CC4)cc3)nc2n1-c1cccc(C(C)(C)O)n1	–	human	oral, 250 mg once daily, cycle 1 day 17, added: durvalumab 1500 mg IV	geometric mean	1010 nM
C=CC(=O)N(C)CCOc1c(N)ncnc1-c1cc(F)cc(NC(=O)c2ccc(C3CC3)cc2F)c1C	–	human	oral, 60 mg single dose	–	138 ng/mL
COc1ncc(-c2nc3c(n2C(C)C)[C@H](c2ccc(Cl)cc2)N(c2cc(Cl)cn(C)c2=O)C3=O)c(OC)n1	LC-MS/MS	human, plasma	oral, 25 mg, cycle 1 day 1, high-dose arm	–	100 ng/mL
O=C(COc1ccc(Cl)cc1)NC12CC(c3nnc([C@H]4C[C@@H](OC(F)(F)F)C4)o3)(C1)C2	–	healthy human subjects, plasma	oral, 100 mg, single ascending dose, fasted	–	1230 nM
Cl.[2H]C([2H])([2H])CC(=O)c1cnc(NC(=O)C2CC2)cc1Nc1cccc(-c2ncn(C([2H])([2H])[2H])n2)c1OC	geometric mean	human	oral, 40 mg twice daily, day 14, fasted, tablet, multiple dose	–	437 ng/mL

For quick reference, copied from above:
SMILES	assay	system	conditions	how to read	Cmax
C=CC(=O)N(C)CCOc1c(N)ncnc1-c1cc(F)cc(NC(=O)c2ccc(C3CC3)cc2F)c1C	–	human	oral, 60 mg single dose	–	138 ng/mL
